Experimental data pooled from the literature.
Compare with care: the assays were run in different laboratories.
Organism: Staphylococcus aureus

| SMILES | test | test system | setting | MIC |
| --- | --- | --- | --- | --- |
| CCCCCCC#Cc1cncc(-c2nnc(SCc3cc([N+](=O)[O-])cc([N+](=O)[O-])c3)n2C2CCNCC2)c1 | broth microdilution | Mu50 MRSA VISA | 18 to 24 h, 37 °C | 8 µg/mL |
| CC[C@H](C)[C@H](NC(=O)[C@H](Cc1ccccc1)NC(=O)[C@@H](NC(=O)[C@H](Cc1c[nH]c2ccccc12)NC(=O)[C@@H]1CCCN1C(=O)[C@@H](NC(=O)[C@H](C)N)[C@@H](C)CC)[C@@H](C)CC)C(=O)N[C@@H](Cc1ccccc1)C(=O)N[C@@H](CCCNC(=N)N)C(=O)N[C@@H](CC(C)C)C(=O)N[C@@H](CC(C)C)C(=O)N[C@@H](CCCNC(=N)N)C(=O)N[C@@H](CCCCN)C(=O)NCC(N)=O | broth microdilution | ATCC 19609 | 18 h, 37 °C | 1.88 µM |
| CC[C@H](C)[C@H](N)C(=O)N[C@@H](CC(C)C)C(=O)NCC(=O)N[C@@H](CCCNC(=N)N)C(=O)N[C@H](C(=O)N[C@@H](Cc1c[nH]c2ccccc12)C(=O)N[C@@H](CCCCN)C(=O)NCC(=O)N[C@H](C(=O)N[C@@H](CCCCN)C(=O)N[C@@H](CC(=O)O)C(=O)N[C@H](C(=O)N[C@@H](CC(C)C)C(N)=O)[C@@H](C)CC)[C@@H](C)CC)[C@@H](C)CC | broth microdilution | ATCC 25923, Mueller-Hinton broth | 16 h, 37 °C | 6.25 µM |
| C/C(=C\C(=O)OCCCCCCCCC(=O)O)C[C@@H]1OC[C@H](C[C@@H]2O[C@H]2[C@@H](C)[C@H](C)O)[C@@H](O)[C@H]1O | – | CRB, PBP4 overexpressor | – | 0.5 µg/mL |
| CC[C@H](C)[C@H](NC(=O)[C@H](CCCNC(=N)N)NC(=O)[C@H](CCCCN)NC(=O)[C@H](CC(C)C)NC(=O)[C@H](CCCCN)NC(=O)[C@H](CCCCN)NC(=O)CNC(=O)[C@H](Cc1ccccc1)NC(=O)[C@H](CC(N)=O)NC(=O)[C@H](CCCNC(=N)N)NC(=O)[C@@H](N)CC(C)C)C(=O)NCC(=O)N[C@@H](CCCCN)C(=O)N[C@@H](Cc1ccc(O)cc1)C(=O)N[C@H](C(=O)N[C@@H](CCCNC(=N)N)C(=O)N[C@@H](CC(N)=O)C(=O)N[C@H](C(=O)N[C@@H](C)C(=O)N[C@@H](CCC(N)=O)C(=O)N[C@@H](CCCCN)C(=O)N[C@H](C(=O)N[C@H](C(=O)N[C@H](C(=O)N[C@H](C(=O)N[C@@H](C)C(=O)N[C@@H](CCC(N)=O)C(=O)NCC(=O)N[C@@H](C)C(=O)N[C@@H](C)C(=O)NCC(=O)N[C@H](C(=O)N[C@@H](C)C(=O)N[C@@H](CCCCN)C(=O)O)C(C)C)C(C)C)[C@@H](C)O)C(C)C)C(C)C)C(C)C)[C@@H](C)O | broth microdilution | ATCC 29213, Mueller-Hinton broth | 16 to 20 h, 37 °C | 76.6 µM |
| CC[C@H](C)[C@H](NC(=O)[C@H](CC(C)C)NC(=O)[C@H](CCCCN)NC(=O)[C@H](CC(C)C)NC(=O)CNC(=O)[C@@H](NC(=O)[C@H](CO)NC(=O)[C@@H](NC(=O)[C@@H](NC(=O)[C@H](CCC(N)=O)NC(=O)[C@H](Cc1c[nH]c2ccccc12)NC(=O)[C@H](CCCNC(=N)N)NC(=O)[C@H](CC(N)=O)NC(=O)[C@H](CCCNC(=N)N)NC(=O)[C@H](CCCNC(=N)N)NC(=O)[C@@H](NC(=O)[C@H](Cc1ccccc1)NC(=O)[C@H](CCCNC(=N)N)NC(=O)CNC(=O)[C@H](C)NC(=O)[C@H](CCCNC(=N)N)NC(=O)[C@H](CCCNC(=N)N)NC(=O)[C@H](CCCCN)NC(=O)[C@H](Cc1ccccc1)NC(=O)[C@H](CCCNC(=N)N)NC(=O)CNC(=O)[C@H](Cc1c[nH]c2ccccc12)NC(=O)[C@H](CCCNC(=N)N)NC(=O)CNC(=O)[C@H](CCCNC(=N)N)NC(=O)[C@@H](N)[C@@H](C)O)[C@@H](C)CC)[C@@H](C)CC)[C@@H](C)CC)[C@@H](C)O)C(=O)NCC(=O)O | – | CMCC 26003 | highest concentration 50 µM | 1.2 µM |
| CC[C@H](C)[C@H](NC(=O)[C@H](CC(C)C)NC(=O)[C@@H](NC(=O)[C@@H](NC(=O)[C@@H](NC(=O)[C@H](CCCNC(=N)N)NC(=O)[C@H](CCCNC(=N)N)NC(=O)[C@H](CCCNC(=N)N)NC(=O)[C@@H](N)CCCNC(=N)N)C(C)C)[C@@H](C)CC)[C@@H](C)CC)C(=O)N[C@@H](CO)C(=O)N[C@@H](CC(C)C)C(=O)N[C@@H](CCCNC(=N)N)C(=O)N[C@@H](CCCNC(=N)N)C(=O)N[C@@H](CCCNC(=N)N)C(=O)N[C@@H](CCCNC(=N)N)C(=O)N[C@@H](Cc1ccccc1)C(=O)N[C@@H](CO)C(=O)N[C@@H](C)C(=O)N[C@@H](Cc1ccc(O)cc1)C(N)=O | broth microdilution | ATCC 29213 | highest value reported | 4 µM |
| CC(C)C[C@@H](NC(=O)CNC(=O)[C@@H](CCCCN)NC(=O)[C@@H](CC(C)C)NC(=O)[C@@H](CCCCN)NC(=O)[C@@H](CCCNC(=N)N)NC(=O)[C@@H](CC(C)C)NC(=O)[C@@H](CC(C)C)NC(=O)[C@@H](CCCNC(=N)N)NC(=O)[C@H](N)CCCNC(=N)N)C(=O)N[C@H](CCCCN)C(=O)N[C@H](CCCCN)C(=O)N[C@H](Cc1ccc(O)cc1)C(=O)N[C@H](CC(C)C)C(=O)N[C@H](Cc1ccc(O)cc1)C(=O)N[C@H](Cc1ccccc1)C(=O)N[C@H](CCCCN)C(=O)N[C@H](CC(C)C)C(=O)N[C@H](CCC(N)=O)C(=O)N[C@H](CC(C)C)C(=O)N[C@H](CC(C)C)C(=O)N[C@H](CCCCN)C(=O)N[C@H](CCCCN)C(N)=O | – | CCARM 3089, methicillin-resistant, Mueller-Hinton broth | 24 h | 4 µM |
| CCCCCCCCCCCCCCCC(=O)NS(=O)(=O)OCCCC | – | ATCC 33591 methicillin-resistant | – | > 200 µg/mL |
| Cc1ccc2[nH]c3c(c2c1)CCCC3NCCc1ccc(Br)cc1 (stereo not drawn) | broth microdilution | HG001 daptomycin-resistant | – | 4 µg/mL |
| CC[C@H](C)[C@H](NC(=O)[C@H](CC(C)C)NC(=O)[C@H](CCCNC(=N)N)NC(=O)[C@@H](N)CCCNC(=N)N)C(=O)N[C@@H](CCCNC(=N)N)C(=O)N[C@H](C(=O)N[C@@H](CC(C)C)C(=O)N[C@H](C(=O)NCC(=O)N1CCC[C@H]1C(=O)N[C@H](C(=O)N[C@H](C(=O)N[C@@H](Cc1ccc(O)cc1)C(=O)N[C@@H](CC(C)C)C(=O)N[C@@H](Cc1ccc(O)cc1)C(=O)N[C@@H](Cc1ccccc1)C(=O)N[C@@H](CCCCN)C(=O)N[C@@H](CC(C)C)C(=O)N[C@@H](CCC(N)=O)C(=O)N[C@@H](CC(C)C)C(=O)N[C@@H](CC(C)C)C(=O)N[C@@H](CCCCN)C(=O)N[C@@H](CCCCN)C(N)=O)[C@@H](C)CC)[C@@H](C)CC)[C@@H](C)O)[C@@H](C)O | broth microdilution | KCTC 1621, Mueller-Hinton broth | 24 h, 37 °C | 64 µM |
| N=C(N)NCCC[C@H](NC(=O)[C@H](Cc1c[nH]c2ccccc12)NC(=O)[C@@H](N)CCCNC(=N)N)C(=O)N[C@@H](Cc1c[nH]c2ccccc12)C(=O)N[C@@H](CCC(N)=O)C(=O)N[C@@H](Cc1ccccc1)C(=O)N[C@@H](CCC(N)=O)C(=O)N[C@@H](Cc1ccccc1)C(=O)N[C@@H](CCCCN)C(N)=O | broth microdilution, optical density | ATCC 25923 | – | 77 µM |
| CC[C@H](C)[C@H](NC(=O)[C@H](CC(C)C)NC(=O)[C@H](CCCCN)NC(=O)[C@@H](NC(=O)[C@H](C)NC(=O)[C@H](CCC(=O)O)NC(=O)[C@H](Cc1c[nH]cn1)NC(=O)[C@@H](NC(=O)[C@H](CCCCN)NC(=O)[C@H](CCC(N)=O)NC(=O)[C@H](Cc1ccccc1)NC(=O)[C@@H](NC(=O)[C@H](CCCCN)NC(=O)[C@H](CCCCN)NC(=O)[C@H](CC(C)C)NC(=O)[C@H](C)N)C(C)C)[C@@H](C)CC)[C@@H](C)CC)C(N)=O | CLSI broth microdilution | ATCC 25923 | 18 h, 37 °C | 4 µM |
| C[C@@H](O)[C@H](NC(=O)[C@H](Cc1c[nH]c2ccccc12)NC(=O)[C@H](Cc1c[nH]c2ccccc12)NC(=O)[C@H](Cc1c[nH]c2ccccc12)NC(=O)[C@@H](NC(=O)[C@H](Cc1c[nH]c2ccccc12)NC(=O)[C@H](CCCNC(=N)N)NC(=O)[C@@H](N)CCCNC(=N)N)[C@@H](C)O)C(=O)N[C@@H](Cc1c[nH]c2ccccc12)C(=O)N[C@@H](CCCNC(=N)N)C(=O)N[C@@H](CCCNC(=N)N)C(N)=O | – | MRSA 43300 | 24 h, 37 °C | 4 µM |
| CC[C@H](C)[C@H](NC(=O)[C@H](CC(C)C)NC(=O)[C@H](CCCNC(=N)N)NC(=O)[C@@H](N)CCCNC(=N)N)C(=O)N[C@@H](CCCNC(=N)N)C(=O)N[C@@H](CCCCN)C(=O)N[C@@H](CC(C)C)C(=O)N[C@@H](CCCCN)C(=O)NCC(=O)N[C@@H](CC(C)C)C(=O)N[C@@H](CCCCN)C(=O)N[C@@H](CCCCN)C(=O)N[C@@H](Cc1ccc(O)cc1)C(=O)N[C@@H](CC(C)C)C(=O)N[C@@H](Cc1ccc(O)cc1)C(=O)N[C@@H](Cc1ccccc1)C(=O)N[C@@H](CCCCN)C(=O)N[C@@H](CC(C)C)C(=O)N[C@@H](CCC(N)=O)C(=O)N[C@@H](CC(C)C)C(=O)N[C@@H](CC(C)C)C(=O)N[C@@H](CCCCN)C(=O)N[C@@H](CCCCN)C(N)=O | – | CCARM 3089, methicillin-resistant, Mueller-Hinton broth | 24 h | 8 µM |
| Cc1cc(Nc2cc(N3CCN(C)CC3)nc(Sc3ccc(NC(=O)C4CC4)cc3)n2)n[nH]1 | – | NCTC 8325 | – | > 30 µM |
| CC(C)C[C@H](NC(=O)CNC(=O)CNC(=O)CNC(=O)[C@H](Cc1ccc(O)cc1)NC(=O)[C@H](CC(C)C)NC(=O)[C@@H](NC(=O)CNC(=O)[C@H](Cc1ccc(O)cc1)NC(=O)[C@H](CCCCN)NC(=O)[C@H](CC(N)=O)NC(=O)[C@@H](NC(=O)[C@H](CCCCN)NC(=O)[C@H](Cc1c[nH]c2ccccc12)NC(=O)CN)[C@@H](C)O)[C@@H](C)O)C(=O)N[C@@H](CCCCN)C(=O)N[C@@H](CCCCN)C(=O)N[C@@H](CC(C)C)C(=O)N[C@@H](CC(C)C)C(=O)N[C@@H](CC(C)C)C(=O)N[C@@H](CC(C)C)C(=O)N[C@@H](CC(C)C)C(=O)N[C@@H](CCCCN)C(=O)N[C@@H](CCCCN)C(=O)N[C@@H](CC(C)C)C(=O)NCC(=O)O | – | ATCC 25923 | with: 2 mM CaCl2 | 16 µg/mL |
| CC(=O)NC[C@H]1CN(c2ccc(N3CCOCC3)c(F)c2)C(=O)O1 | – | MRSA strain 4 | – | 0.5 µg/mL |

Excerpt of the above:
| SMILES | test | test system | setting | MIC |
| --- | --- | --- | --- | --- |
| CC[C@H](C)[C@H](NC(=O)[C@H](CC(C)C)NC(=O)[C@H](CCCNC(=N)N)NC(=O)[C@@H](N)CCCNC(=N)N)C(=O)N[C@@H](CCCNC(=N)N)C(=O)N[C@H](C(=O)N[C@@H](CC(C)C)C(=O)N[C@H](C(=O)NCC(=O)N1CCC[C@H]1C(=O)N[C@H](C(=O)N[C@H](C(=O)N[C@@H](Cc1ccc(O)cc1)C(=O)N[C@@H](CC(C)C)C(=O)N[C@@H](Cc1ccc(O)cc1)C(=O)N[C@@H](Cc1ccccc1)C(=O)N[C@@H](CCCCN)C(=O)N[C@@H](CC(C)C)C(=O)N[C@@H](CCC(N)=O)C(=O)N[C@@H](CC(C)C)C(=O)N[C@@H](CC(C)C)C(=O)N[C@@H](CCCCN)C(=O)N[C@@H](CCCCN)C(N)=O)[C@@H](C)CC)[C@@H](C)CC)[C@@H](C)O)[C@@H](C)O | broth microdilution | KCTC 1621, Mueller-Hinton broth | 24 h, 37 °C | 64 µM |
| CC[C@H](C)[C@H](NC(=O)[C@H](CC(C)C)NC(=O)[C@H](CCCCN)NC(=O)[C@H](CC(C)C)NC(=O)CNC(=O)[C@@H](NC(=O)[C@H](CO)NC(=O)[C@@H](NC(=O)[C@@H](NC(=O)[C@H](CCC(N)=O)NC(=O)[C@H](Cc1c[nH]c2ccccc12)NC(=O)[C@H](CCCNC(=N)N)NC(=O)[C@H](CC(N)=O)NC(=O)[C@H](CCCNC(=N)N)NC(=O)[C@H](CCCNC(=N)N)NC(=O)[C@@H](NC(=O)[C@H](Cc1ccccc1)NC(=O)[C@H](CCCNC(=N)N)NC(=O)CNC(=O)[C@H](C)NC(=O)[C@H](CCCNC(=N)N)NC(=O)[C@H](CCCNC(=N)N)NC(=O)[C@H](CCCCN)NC(=O)[C@H](Cc1ccccc1)NC(=O)[C@H](CCCNC(=N)N)NC(=O)CNC(=O)[C@H](Cc1c[nH]c2ccccc12)NC(=O)[C@H](CCCNC(=N)N)NC(=O)CNC(=O)[C@H](CCCNC(=N)N)NC(=O)[C@@H](N)[C@@H](C)O)[C@@H](C)CC)[C@@H](C)CC)[C@@H](C)CC)[C@@H](C)O)C(=O)NCC(=O)O | – | CMCC 26003 | highest concentration 50 µM | 1.2 µM |
